Measured values gathered from unrelated publications.
Parts stem from different laboratories: compare values within a part only. Substitutions count along the parent as printed.

Study 1
Target: CCND2, cyclin fold, Cln2 fusion (human)
Method: yeast growth competition, sequencing
Matrix: yeast
Setting: weak parent motif
Baseline: not given
Reading: higher = stronger binding
Starting sequence: PKN2 docking peptide (human); VSAVQKLDFSDTM; partner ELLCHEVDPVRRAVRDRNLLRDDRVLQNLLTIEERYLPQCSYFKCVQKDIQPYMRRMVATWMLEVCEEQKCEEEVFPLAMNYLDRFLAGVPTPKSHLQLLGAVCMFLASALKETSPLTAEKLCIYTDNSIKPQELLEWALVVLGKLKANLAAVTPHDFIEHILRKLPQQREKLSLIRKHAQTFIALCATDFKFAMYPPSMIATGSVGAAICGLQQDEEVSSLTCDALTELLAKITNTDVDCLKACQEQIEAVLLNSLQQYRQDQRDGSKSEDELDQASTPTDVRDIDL
Variant | normalised enrichment score
VSAVQKLDFSDYM [T12Y] | 0.826
VKAVQKLDFSDTM [S2K] | 0.515
VSAEQKLDFSDTM [V4E] | 0.17
VSAVQKLDHSDTM [F9H] | 0.122
NSAVQKLDFSDTM [V1N] | 0.863
VSAVQKYDFSDTM [L7Y] | 0.132
VSAVQKLDFSDTN [M13N] | 0.638
VSAVQKLDFSTTM [D11T] | 0.352
VSAVQKLDASDTM [F9A] | 0.0635
VSAVQKLCFSDTM [D8C] | 0.286
VSAVQKLDFDDTM [S10D] | 0.539
VSAVQKLDFSDTC [M13C] | 0.697
VSSVQKLDFSDTM [A3S] | 0.554
VSAVQKLDFYDTM [S10Y] | 0.47
VSARQKLDFSDTM [V4R] | 0.333
VSAVQTLDFSDTM [K6T] | 0.211
VSACQKLDFSDTM [V4C] | 0.186
VSAVQKHDFSDTM [L7H] | 0.35
VSANQKLDFSDTM [V4N] | 0.105
VSWVQKLDFSDTM [A3W] | 0.371
VSATQKLDFSDTM [V4T] | -0.183
VSAVQYLDFSDTM [K6Y] | 0.143
VSAVQRLDFSDTM [K6R] | 0.56
VSAVQKTDFSDTM [L7T] | -0.00798
VSAVQKLDFSDTD [M13D] | 0.573

Study 2
Target: ABI1, truncated, D143A, DHFR fusion (Arabidopsis thaliana)
Method: DHFR PCA, deep sequencing
Matrix: yeast
Setting: methotrexate growth selection, single substitutions
Together with: (+)-ABA 58 µM
Baseline: wild-type fitted maximum
Reading: higher = stronger binding
Starting sequence: PYL1, truncated, DHFR fusion (Arabidopsis thaliana); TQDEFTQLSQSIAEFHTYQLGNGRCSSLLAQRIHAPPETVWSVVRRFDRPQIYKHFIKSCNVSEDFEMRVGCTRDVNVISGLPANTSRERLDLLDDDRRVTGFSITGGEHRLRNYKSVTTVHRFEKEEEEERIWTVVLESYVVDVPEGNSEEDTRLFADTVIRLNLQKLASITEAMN
Variant | relative binding score
E14W | 39.3%
C72G | 65.7%
D153K | -3.96%
L166Q | 32.2%
T173G | 57%
V137P | -1.8%
D65G | 84.9%
S59I | 44.7%
F157V | 58.1%
E127V | 91.6%
P50R | 2.62%
S11P | 81.4%
Q31A | 42.6%
G107D | 74.8%
I57C | 45%
T154L | 36.1%
I12C | 46.6%
F124S | 78.8%
A175I | 72.9%
S80H | 30.2%
S140K | 7.91%
D144Q | 59.9%
N22E | 95.5%
N177G | 77%

Study 3
Target: RNA binding protein fox-1 homolog 2, RRM domain, GST-SBP tag (RBFOX2, Homo sapiens, UniProt O43251-10, residues 100-194)
Method: RNA Bind-n-Seq
Form: RNA
Matrix: in vitro
Concentration: 365 nM
Setting: natural RNA segment, single round, ends assumed
Baseline: no-protein control
Reading: higher = stronger binding
Shared flanks, not repeated: GGGAGUUCUACAGUCCGACGAUC … UGGAAUUCUCGGGUGCCAA
Construct (chain): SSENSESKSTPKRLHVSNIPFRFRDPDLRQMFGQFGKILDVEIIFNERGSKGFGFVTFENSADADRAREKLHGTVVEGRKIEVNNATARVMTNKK
Strand | RBNS enrichment (R)
CUUAGAUAUCUUAGUUAUCUUUUGUUGACAGAUGAAUGGGAAUUAACAAUAGCUUUAUGUCUUUGUGAAAAUGAAAUUUACUUUUAGUUUCAUAUUAUAUUUAAAGACAU | 0.63
GUCCUCACUAAGCUAGAUAAUGUCUGUGACGGAAGUAAGAAAGUCCUCCUCUGGGAUACGGCACUUACACAUGGGAAGAAUGGUACGGGGAAGUGUAACACCUCAGAAAG | 0.796
GAUCAAAAUAAAUAGAGUGUAAAUUCUUUUUAAUGCUUUAGUGAUUAAAUGUUUUAGUAUUUUGAACUGAAAUGGACACACAAACACACACACGCACACACAGACCCACA | 0.545
UAUUAAUAGAUGCAUAUAUACAUGACAUAUUGUGGUUAAUUUUAAAACUACUGUGCCUUAACGUGUUUCUUAAACUUUUGUAGUAAAUGAACAUUUGAAAUCCAUUUUGA | 0.42
UUCAAUGCCUACCGUCGGCCCACCUGAGCGGUCUUCACCUUUGCCAACUUUGACGGAUUUCUGUGUGGAGAGUUGAGAUUUCUAUUUCCUGUUUUGGUUUAACAGUUUCU | 0.393
AAAGGAAAGGACCCUGAAGCCAAUAUCUGAUUCUCGGCUGCACCUUCUCUUGGCCACCCUGGCCCUGACCGGGCCAGCACGUGCACACUGGCCUCUUUUCAUUUCACUAG | 0.646
GCAGGACAAGGGGACUGGAAGAGGUUUCCUCAGAAGGCUCCCGGAACUUGGAGUCAGGCAUCGUGACUGGUAGGGCUCAGAACUGUUCCCAUCCCUUUCCCUGCUUCAGC | 0.332
UGAUUACCGUUCUCUGAGGCACUGGAGCCUUCAUACACCUCACCUGCCUUGGCAAGCCUAUUUUUGUGACCUGGCAGCACAGAUUUAACACUAUUCGUUAAAAGCACUUU | 0.79
UGUCUUCCUGGAAACCUAAAGGGAAACAUGAUCUUGUCCUGAAAAUGAUAUUUUAGAGUCUGAGUGACCCCUUUGACUAUCAGUUCUGAAGAGCAAUUCUCACUGGUAAC | 0.229
UGGGAUAGAUUUUGAUACACCCAAUACCAUACACACAGGAGCUUGGCAUUUGCAAAGUCUAUUCAGUUUCCUUCCACACUCUGACCCACGGUUGUAGCGGAGUGGGCUGA | 0.531
ACCUCAGCCUCCUGUCCCCGUCCUGGUCUUCCCUACACAGUCUGGAGAGGGCUCUGAAAGGUCCACAGAGUUUGACAGACACGAAAGCAACCCAUUGCCCCGUUGACCUG | 0.383
ACCUGCCACGGCCACCUCCGAGACAAAAUCCUUGCUGCUUCUCUUUCAUGGUGCUGUCCCGCCGGAGGAGGCCAUCCAUCCGUCCCUGGGAUGCAACAUGGGGUCCCAAU | 0.309

Study 4
Target: Centromere-binding protein 1, full length, N-terminal tag (CBF1, Saccharomyces cerevisiae, UniProt P17106, residues 1-351)
UniProt P17106, sequence (whole entry, looked up): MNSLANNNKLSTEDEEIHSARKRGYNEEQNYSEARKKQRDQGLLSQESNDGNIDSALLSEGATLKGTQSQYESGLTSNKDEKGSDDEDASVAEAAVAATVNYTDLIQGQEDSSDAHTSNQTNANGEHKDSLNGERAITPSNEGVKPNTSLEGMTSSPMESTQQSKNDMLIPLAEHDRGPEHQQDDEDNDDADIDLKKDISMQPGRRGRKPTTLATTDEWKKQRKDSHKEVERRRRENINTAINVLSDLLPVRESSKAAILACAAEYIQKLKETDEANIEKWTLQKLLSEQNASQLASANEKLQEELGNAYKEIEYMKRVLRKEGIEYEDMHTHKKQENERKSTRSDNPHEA
Method: protein-binding microarray
Form: double-stranded DNA, one strand shown
Matrix: in vitro
Concentration: 0.8 µM
Setting: whole 60-bp probe, no competitor
Reading: higher = stronger binding
Shared flanks, not repeated: … GTCTTGATTCGCTTGACGCTGCTG
Strand | fluorescence intensity [a.u.]
CTACTTTTTTTTTAATGCCTGACGTTGAAGAGCTTC | 534
CTACCGGAAATAAAGCACATGTAAAGCATTGAGTTC | 724
GAAGGATATTGTGCTGATGTAAAAGTATTCCTATAG | 562
CTATCCACGGAAAAACACGTGCTGTGCGGGTATTTC | 6520
GAACGCGTCAATAAACACATGATGAGTATGTGTTAG | 1090
CTAACCCTTGTCGGTCACGTGAGCAAAAATACTTTC | 39300
CTAATATAAATGGGCCTGATGTTCGTTAAAAGCTTC | 527
GAACACTGCGCAGGTGACGGTAAAGAAAACAGGTAG | 1170
TGTACGAAGCTATTTTATCTGATTATAGTAGTTAGG | 520
CTATTGCAACATGTTCACATGTTCATCCCCCTGTTC | 967
GAATCAGTTTCTTAGCTGATGATGAGTGCTGTCTAG | 539
CCTAACTACTATACGCACGAACGATAGCTTCGTACA | 540
CCTAACTACTATACACGTGCAACATAGCTTCGTACA | 5310
TGTACGAAGCTATAAGGTCACGTTATAGTAGTTAGG | 3320
CTAACGCATCTAGAACAGCTGAGATGAAAGAGGTTC | 549
GAACACTCTTCCCGTGATGCGAATGGTAAAGAATAG | 1300
GAACTAAACGGAAGGCACATGCATCGCATAATTTAG | 696
CTAAGTGTGTGTAATTGCGTGTAGCTTGAAAGATTC | 525
GAAAGAGGACCACCCCACGTGCCAGAATTGTTTTAG | 4260
CTACTCCGCCGTGTTGGTGATGCAGTTTTCTCTTTC | 511
GAACAATAAGAAAAACATCTGATGTTGACTTAATAG | 507
CTAATTTCCCATAGTCTCATGAAAATTCCTGGCTTC | 507
TGTACGAAGCTATCAAACGTGAATATAGTAGTTAGG | 525
CTATCCTTCTGTTCTGATGTATTAAAAACTATTTTC | 607
CCTAACTACTATACACACATGCTATAGCTTCGTACA | 574

For quick reference, copied from above (study 2):
Variant | relative binding score
E127V | 91.6%
S80H | 30.2%
S11P | 81.4%
G107D | 74.8%
D65G | 84.9%
C72G | 65.7%
F157V | 58.1%
T173G | 57%
E14W | 39.3%
N177G | 77%
P50R | 2.62%
D153K | -3.96%
S59I | 44.7%
